Measured values collected from several papers.
Parts stem from different laboratories: compare values within a part only. Positions count from the first letter of the parent shown.

Set 1 — target: CEP164, C-terminal peptide (human); technique: DHFR complementation, deep sequencing; sample: yeast; reference: wild type; reading: higher = weaker binding; measurement: binding free energy change
Setting: single substitutions, model-inferred values
Starting sequence: PDZK1, PDZ domain 2 (human); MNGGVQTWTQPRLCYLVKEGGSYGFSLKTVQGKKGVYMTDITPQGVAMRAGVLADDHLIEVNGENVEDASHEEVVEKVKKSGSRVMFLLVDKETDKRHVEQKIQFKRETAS; partner HNRVKVYRF
Variant = N65R; value = 0.211 kcal/mol
Variant = S81T; value = 0.462 kcal/mol
Variant = A69V; value = -0.269 kcal/mol
Variant = L53W; value = 0.119 kcal/mol
Variant = P43R; value = 0.437 kcal/mol
Variant = G24M; value = 1.3 kcal/mol
Variant = A110E; value = -0.0527 kcal/mol
Variant = T39N; value = 0.637 kcal/mol

Set 2 — technique: RNA Bind-n-Seq; form: RNA; sample: in vitro; tested at: 1 µM; setting: whole 134-nt RNA, ends assumed; together with: 150 mM KCl; reference: input library; reading: higher = stronger binding; measurement: log2 enrichment
Target: Ras GTPase-activating protein-binding protein 1, RRM domain (G3BP1, Homo sapiens, UniProt Q13283)
Chain of UniProt Q13283 (whole entry, looked up): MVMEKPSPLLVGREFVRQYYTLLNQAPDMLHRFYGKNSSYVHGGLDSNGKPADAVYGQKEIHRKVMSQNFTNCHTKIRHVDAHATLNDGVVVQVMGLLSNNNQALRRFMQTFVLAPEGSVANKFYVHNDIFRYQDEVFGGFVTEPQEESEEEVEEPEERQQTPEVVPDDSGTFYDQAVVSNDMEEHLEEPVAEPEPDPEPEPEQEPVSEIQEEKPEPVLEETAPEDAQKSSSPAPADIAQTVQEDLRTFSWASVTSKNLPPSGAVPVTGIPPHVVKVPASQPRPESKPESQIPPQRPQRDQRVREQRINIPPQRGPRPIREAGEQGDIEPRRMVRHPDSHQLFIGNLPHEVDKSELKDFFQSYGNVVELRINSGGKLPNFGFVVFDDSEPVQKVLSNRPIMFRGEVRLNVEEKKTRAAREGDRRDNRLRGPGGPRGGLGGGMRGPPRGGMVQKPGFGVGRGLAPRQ
Strand = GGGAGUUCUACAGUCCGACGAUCCCUCAAGUCCUGUGCUACACAUCGUAUGUACCGAAUCGGUGGGGUGGGUGGGAAAGUAUUAUGUUACGCCGUUCGGAUCUGCACUUCCAGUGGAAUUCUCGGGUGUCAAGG; value = 0.324
Strand = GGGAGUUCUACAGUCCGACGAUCUUACAUUACCUGGUGAAAUAGACAUUGACAGUAUCUCCUAUGAAGAGCUUUCACCACCUGAUGAAGAGCCUGCCAAGAAUAAAAAGGAAAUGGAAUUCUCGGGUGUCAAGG; value = -0.00513
Strand = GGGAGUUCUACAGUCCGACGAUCAGUCCUGUGCUACACAUCGUAUGUACCGAAUCGGGUGGGAAAAAAAGGGUUUUUGGGAAAGUAUUAUGUUACGCCGUUCGGAUCUGCACUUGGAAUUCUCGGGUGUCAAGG; value = 0.503
Strand = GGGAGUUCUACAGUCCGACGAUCUCCUCAAGUCCUGUGCUACACAUCGUAUGUACCGAAUCGGGCGGCGGGGCGGAAAGUAUUAUGUUACGCCGUUCGGAUCUGCACUUCCAGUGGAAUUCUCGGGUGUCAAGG; value = -0.303
Strand = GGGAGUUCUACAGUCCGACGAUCUGGGAGGUGGAUUUUGUUUAUUUUUGUAGCUCAUUUCCAGGGGUGGGAAUUUUUUUUUAAUAUGUGUCAUGAAUAAAGUUGUUUUUGAAAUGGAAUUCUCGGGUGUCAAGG; value = 1.92
Strand = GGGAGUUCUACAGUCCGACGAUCUCAAGUCCUGUGCUACACAUCGUAUGUACCGAAUCGGGAAGGGAAGGGGAAGGGGAAAGUAUUAUGUUACGCCGUUCGGAUCUGCACUUCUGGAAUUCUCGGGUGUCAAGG; value = 1.04
Strand = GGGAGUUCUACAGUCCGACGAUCUUGAAAGAAUUUGCCAACUUUGACUUUGAUGUCUGGAGGAAAAAGUAUAUGCGUUGGAUGAAUCACAAAAAGUCUCGAGUGAUGGAUUUCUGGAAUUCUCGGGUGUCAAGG; value = -0.212
Strand = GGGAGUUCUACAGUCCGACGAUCCAAGUCCUGUGCUACACAUCGUAUGUACCGAAUCGGGUGGGUUUUUGGGAAAGGGAAAGUAUUAUGUUACGCCGUUCGGAUCUGCACUUCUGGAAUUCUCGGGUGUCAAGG; value = 0.676

Other studies, line by line
P1: PafA, mature enzyme, eGFP fusion (Elizabethkingia meningoseptica, UniProt Q9KJX5); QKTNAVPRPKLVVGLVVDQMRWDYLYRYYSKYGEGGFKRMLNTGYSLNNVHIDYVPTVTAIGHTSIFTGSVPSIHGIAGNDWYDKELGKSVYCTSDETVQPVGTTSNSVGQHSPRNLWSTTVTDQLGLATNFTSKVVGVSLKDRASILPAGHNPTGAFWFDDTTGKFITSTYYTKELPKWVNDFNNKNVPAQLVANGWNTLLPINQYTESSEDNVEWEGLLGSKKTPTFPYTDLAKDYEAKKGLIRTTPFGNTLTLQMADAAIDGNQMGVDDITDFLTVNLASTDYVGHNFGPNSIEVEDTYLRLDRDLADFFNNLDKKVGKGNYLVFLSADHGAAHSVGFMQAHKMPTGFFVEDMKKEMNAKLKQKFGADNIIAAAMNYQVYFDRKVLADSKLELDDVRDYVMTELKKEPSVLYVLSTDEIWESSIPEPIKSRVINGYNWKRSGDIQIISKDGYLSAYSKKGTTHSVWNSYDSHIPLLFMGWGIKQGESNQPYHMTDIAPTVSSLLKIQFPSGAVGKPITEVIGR
Molecule = PhoQ, residues 284 288 289 292 302 303 TSTLRA; target = PhoP, residues 12 14 15 18 19 NYFTV (Escherichia coli, UniProt P23836); assay = Sort-seq, refers to: YFP reporter; test system = E. coli; setting = PhoQ-PhoP variant library, together with: 10 µM Mg2+; scale = reference: high Mg2+ state, higher = stronger signaling; measurement = fold induction; value = 1.35
Molecule = P1 V13A; target = inorganic phosphate, free oxyanion; assay = microfluidic competitive inhibition; test system = in vitro, cell-free expressed; setting = not given, derived from inhibition constants, unchanged parent 615000 nM; scale = lower = stronger binding; measurement = phosphate dissociation constant; value = 598 µM

Repeated from above (set 1):
Variant = T39N; value = 0.637 kcal/mol
Variant = A69V; value = -0.269 kcal/mol
Variant = P43R; value = 0.437 kcal/mol
